Assay results of several laboratories.
Numbered parts are unrelated; each lists some results of a single study.

Series 1
Target: PABPC1L2, full length, GST fusion (mouse, UniProt A0ABA7IW68)
Method: RNAcompete
Molecule type: RNA
Sample: in vitro
Tested at: 20 nM
Setting: 7-mer, probes averaged, single round
Reference: mean of 7-mers
Direction: higher = stronger binding
Residues (chain): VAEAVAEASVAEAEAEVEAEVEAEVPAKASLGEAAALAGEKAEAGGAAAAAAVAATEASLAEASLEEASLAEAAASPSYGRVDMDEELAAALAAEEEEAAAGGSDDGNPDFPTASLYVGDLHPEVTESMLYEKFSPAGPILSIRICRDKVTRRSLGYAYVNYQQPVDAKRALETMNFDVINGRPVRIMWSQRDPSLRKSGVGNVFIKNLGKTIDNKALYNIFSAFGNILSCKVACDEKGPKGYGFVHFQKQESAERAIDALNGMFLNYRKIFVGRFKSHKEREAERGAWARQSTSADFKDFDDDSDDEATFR
Oligonucleotide | 7-mer Z-score
UCAAGAU | -0.0971
GCGAGCU | -0.253
CUUCAGC | -0.293
UGUAGGA | -0.00652
AAGGCUC | -0.103
GCGACUA | 0.00254
GACAGAU | -0.0699
GACGCUC | -0.219
UCGUAGG | -0.229
CUUUUUC | -0.215
CCUGCGA | -0.141
CCUCCAC | -0.389
AAUCAUU | -0.00833
UACAUUC | -0.161
GCUUUGG | -0.322
CGCGACU | -0.117
UAACUUG | -0.298
ACGAAUA | 0.0478
AUCGAUU | -0.246
CCAUCAA | 0.000733
CCCCUUG | -0.46
AAGGGAA | 0.466
CUAGUGC | -0.237
UACGGAU | 0.0297
CCGAGGA | -0.0844

Series 2
Target: RNA binding protein fox-1 homolog 2, RRM domain, GST-SBP tag (RBFOX2, Homo sapiens, UniProt O43251-10, residues 100-194)
Method: RNA Bind-n-Seq
Molecule type: RNA
Sample: in vitro
Tested at: 365 nM
Setting: natural RNA segment, single round, ends assumed
Reference: no-protein control
Direction: higher = stronger binding
Constant ends, left off below: GGGAGUUCUACAGUCCGACGAUC … UGGAAUUCUCGGGUGCCAA
Construct (chain): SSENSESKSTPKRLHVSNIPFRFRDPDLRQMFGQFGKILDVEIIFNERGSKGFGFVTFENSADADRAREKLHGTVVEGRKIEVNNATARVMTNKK
Oligonucleotide | RBNS enrichment (R)
ACAAGGGGCUGGCUGUCCUGGGCUCCCUGACCCACUGAAGCUUCUCAGCACGUUCCUCCCUGGAGAGCGGGCGCCACGGCUGGUAUUCUGCAGGCUGAAUGCAGUCUCCA | 0.718
UGGGGAGGCCCAGAGUUACCUGCCAUAUCCCACAUAGUGGAGGCGUUCCCGCAGCCGCCACCACUAGCCUCCUUAGGGCUGGCCUUGUCCAAAGAAUGGGGGUGGGAGCG | 0.246
AGCUCACUGUAACUUCUCCCAUACUCUACCAAUCCUCCUGCCUCAGCAUCCAGACUAGCUGUGAUUACAGGUGUGCACCACCACACCCAGCUACAUUUUUUUUUGGUAGA | 0.794
UCUGUGUCCUACAUAGAGCAGCAACUUUAUCUGCGGUGGGCUCCAAGCUAGAUUUCCGACAGCAUUAUUCUGAGAGCUGGCUACCAUUACCCUUCUUGCUAUUGGAAACU | 6.3
UGCGACUUCUCCUGGUCCUCCCCAGAAGUAUCUGGUGUCAGCUGAAGACCAUGUGUCCCCCAAUACUUAGAUUUCACCGUACUUUCUGAUGGUGUUUUUAAAAGGCCAAG | 0.241
UAGAAACACAUUAACUGGUUUACUCAUUGAGAAUCCAGCAUAUUUAAGAGGUGACCCUGUGUUUUUUGUGAUAUUGAGGCAUUCAUACAGAGCUGCAGUUAGACGGGGUU | 0.562
GAGGCCGAGGCAGGUGGAUCGCCUGAGCUCAGGAGUUCAAGACCAGCCUGGGCAACAUGGCAAAACCCCGUCUCUACUAAAAAUACAAAAAAUUAGCUGGGUGUGGUGGU | 0.293
UCACUCCACAGUAUGCUAAAGAAGAAAAAGUGAGUGGGCACAACACUUUGACCCUCUGGCUAAGCCCUGGGAGUCCCUGACAGGUCCAGAAACUUCUCUGACACCCAUUC | 0.657

Series 3
Target: Histone acetyltransferase KAT6A, winged helix 2, GST fusion (KAT6A, Homo sapiens, UniProt Q92794, residues 85-181)
Method: protein binding microarray
Molecule type: double-stranded DNA, one strand shown
Sample: in vitro
Tested at: not given
Setting: 8-mer, flanks averaged, mean of 2 arrays, mostly near background
Reference: not given
Direction: higher = stronger binding
Construct (chain): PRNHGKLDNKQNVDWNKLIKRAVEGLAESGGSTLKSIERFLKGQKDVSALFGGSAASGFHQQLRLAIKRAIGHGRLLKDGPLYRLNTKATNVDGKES
Oligonucleotide | E-score
GTTGACCA | 0.0622
CTGATGGC | -0.0377
CACCAATG | -0.0462
CCTCCTCG | 0.0165
CTTCTCGC | -0.0788
GCTAAGTA | -0.0566
CGCATAAG | -0.0145
AAAGTTCA | -0.0312
CATCGAGG | 0.0803
AATACAGC | 0.00132
ACCATGTA | -0.15
CCACGGTA | -0.0125
ATCGGTCA | -0.144
AGGTCTGA | 0.0295
CGCAACCA | 0.102
AGCCACTA | -0.0409

Series 4
Target: Ras GTPase-activating protein-binding protein 1, full length (G3BP1, Homo sapiens, UniProt Q13283)
Sequence of UniProt Q13283 (whole entry, looked up): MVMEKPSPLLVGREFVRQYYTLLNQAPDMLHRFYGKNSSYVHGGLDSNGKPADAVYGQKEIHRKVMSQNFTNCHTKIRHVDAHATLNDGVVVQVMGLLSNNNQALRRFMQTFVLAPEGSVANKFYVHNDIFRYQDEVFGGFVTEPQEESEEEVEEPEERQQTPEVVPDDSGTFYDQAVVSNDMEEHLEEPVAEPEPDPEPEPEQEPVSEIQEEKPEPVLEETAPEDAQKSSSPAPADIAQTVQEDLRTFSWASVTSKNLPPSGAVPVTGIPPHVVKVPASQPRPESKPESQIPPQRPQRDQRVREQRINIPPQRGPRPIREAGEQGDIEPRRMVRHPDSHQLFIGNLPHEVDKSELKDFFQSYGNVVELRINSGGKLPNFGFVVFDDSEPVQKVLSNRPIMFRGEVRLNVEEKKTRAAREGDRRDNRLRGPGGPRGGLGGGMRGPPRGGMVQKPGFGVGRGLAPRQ
Method: RNA Bind-n-Seq
Molecule type: RNA
Sample: in vitro
Tested at: 200 nM
Setting: whole 134-nt RNA, ends assumed
Together with: 150 mM KCl
Reference: input library
Direction: higher = stronger binding
Constant ends, left off below: GGGAGUUCUACAGUCCGACGAUC … UGGAAUUCUCGGGUGUCAAGG
Oligonucleotide | log2 enrichment
UGGGAGGUGGAUUUUGUUUAUUUUUUUAGCUCAUUUCCAGGGGUGGGAAUUUUUUUAUAAUAUGUGUCAUGAAUAAAGUUGUUUUUGAAA | 0.403
CACAGACAACACGCACCCACACAGACACAGAGGGAAGGGGUUGGGAUGAAAACAGGGUGCACAGCAGGGCGGGGUAGGACCCCAGCCCCU | 1.06
UUUGCAGAGCAGUCUCUGAUGAAGAAUGCCAUAAAAACAUCGGAGGAGUCAUGGAUUGAACAGCAGAUGCUAGAAGACAAGAAACGGGCC | -1.19
UUUGUGAGACAUGUGAAAGGAGGACAUGGUCACAGUCAUGGACAUGGACACGCUCACAGUCAUACACGUGGAAGUCAUGGACAUGGAAGA | -2.36
AAGUCCUGUGCUACACAUCGUAUGUACCGAAUCGGGGAGGGGAAAGGGGAAAGGGGAAAGUAUUAUGUUACGCCGUUCGGAUCUGCACUU | 0.839
GUCCUGUGCUACACAUCGUAUGUACCGAAUCGGGGAGGGGUUUUUGGGGAAAAAGGGGAAAGUAUUAUGUUACGCCGUUCGGAUCUGCAC | 0.462
UCCUCAAGUCCUGUGCUACACAUCGUAUGUACCGAAUCGGUUUGGAGGAGGAAAGUAUUAUGUUACGCCGUUCGGAUCUGCACUUCCAGC | -0.805
CACAGACAACACGCACCCACACAGACACAGAGGGAAGGGGUUAAAAUGGGGACAGGGUGCACAGCAGGGCGGGGUAGGACCCCAGCCCCU | 1.17
UGUGGAUGCCCUGCUGAAGAAGUCUGAGGCCCAGCAUGAACAGCCGGAAGAUGGAUGCCCCUUUGGUGCCCUGACGCAGCGCCUCCUGCA | -0.0567

Some of these lines once more (series 1):
Oligonucleotide | 7-mer Z-score
CUUCAGC | -0.293
CCGAGGA | -0.0844
UCAAGAU | -0.0971
GCGAGCU | -0.253
CCAUCAA | 0.000733
AAGGCUC | -0.103
GCUUUGG | -0.322
CUAGUGC | -0.237
UACAUUC | -0.161
CCUGCGA | -0.141
